Results gathered from unrelated publications.
Each line is one published result; not all experiments were run side by side.

| SMILES | cell line | test | setting | scale | endpoint | value |
| --- | --- | --- | --- | --- | --- | --- |
| COc1cc(CNC(=O)C[C@H](C)CCC=C(C)C)ccc1O | SK-OV-3 ovarian cancer cells | SRB | 10 µM, 48 h | – | growth percent | 97.8% |
| N=C(N/N=C/c1ccc[nH]1)N/N=C/c1ccc[nH]1 | PANC-1 | crystal violet | 72 h | relative to: IC50 hTERT-HPNE over IC50 PANC-1 | selectivity ratio | 18.1 |
| COc1cc(CNC(=O)C[C@H](C)CCC=C(C)C)ccc1OCc1cn(-c2ccc(F)cc2)nn1 | TK-10 | SRB | 10 µM, 48 h | – | growth percent | 91.8% |
| CCN(CC)C1CCN(Cc2cc(C#CCNc3ccccc3)cc(I)c2O)CC1 | NUGC-3 p53 Y220C | caspase 3/7 apoptosis | 6 h | – | onset concentration | 50 µM |
| CC[C@H](C)[C@H](NC(=O)[C@H](CCCCN)NC(=O)[C@@H](NC(=O)[C@H](CCC(N)=O)NC(=O)[C@@H](N)CCCNC(=N)N)[C@@H](C)CC)C(=O)N[C@@H](Cc1c[nH]c2ccccc12)C(=O)N[C@@H](Cc1ccccc1)C(=O)N[C@@H](CCC(N)=O)C(=O)N[C@@H](CC(N)=O)C(=O)N[C@@H](CCCNC(=N)N)C(=O)N[C@@H](CCCNC(=N)N)C(=O)N[C@@H](CCSC)C(=O)N[C@@H](CCCCN)C(=O)N[C@@H](Cc1c[nH]c2ccccc12)C(=O)N[C@@H](CCCCN)C(=O)N[C@@H](CCCCN)C(=O)N[C@@H](CO)C(=O)N[C@@H](Cc1c[nH]c2ccccc12)C(=O)N[C@H](C(=O)N[C@@H](Cc1c[nH]c2ccccc12)C(=O)N[C@@H](CCC(=O)O)C(=O)N[C@@H](CCCCN)C(=O)N[C@@H](CCCCN)C(=O)N[C@@H](CC(C)C)C(=O)N[C@@H](CCC(=O)O)C(=O)N[C@H](C(=O)N[C@@H](C)C(=O)N[C@H](C(=O)N[C@@H](CC(N)=O)C(=O)N[C@@H](CC(C)C)C(=O)N[C@@H](C)C(=O)N[C@@H](Cc1c[nH]c2ccccc12)C(=O)N[C@H](C(=O)N[C@@H](C)C(=O)NCC(=O)N[C@@H](CC(N)=O)C(=O)N[C@@H](CO)C(=O)N[C@@H](CC(N)=O)C(=O)N[C@@H](CCCCN)C(=O)N[C@@H](Cc1c[nH]c2ccccc12)C(=O)N[C@H](C(=O)N[C@@H](Cc1c[nH]c2ccccc12)C(=O)N[C@@H](CCCCN)C(=O)O)[C@@H](C)O)[C@@H](C)O)C(C)C)[C@@H](C)O)[C@@H](C)O | CLL patient PBMCs | CellTiter-Glo | 1.5 µM, 5 min | – | decrease in cellular ATP | 50% |
| CCc1cccc(CC)c1NC(=O)c1nn(C)c2c1CCc1cnc(Nc3ccc(N4CCN(C)CC4)cc3OC)nc1-2 | HeLa H2B-YFP | mitotic timing, live cell imaging | 50 and 100 nM, within 15 min | – | cells entering anaphase | ~100% |
| COc1ccc(C=C2SC(N3N=C(c4cccs4)CC3c3ccc(F)cc3)=NC2=O)cc1 (centres unmarked) | T47D | PI flow cytometry | concentration not given, 24 h | – | cells in %Sub-G1 phase | 26.8% |
| CC(=O)OC[C@H]1O[C@@H](Sc2sc(C(=O)c3ccc(C)cc3)c(N)c2-c2nc3ccccc3s2)[C@H](OC(C)=O)[C@@H](OC(C)=O)[C@H]1OC(C)=O | SN12C | SRB | 10 µM, 48 h | relative to: untreated | growth | 91.4% |
| CO[C@H]1N(OC)c2ccccc2[C@@]12CN=C(Nc1cc(C(F)(F)F)cc(C(F)(F)F)c1)S2 (relative stereo) | HCT-116 | PI flow cytometry | concentration not given, 48 h | relative to: untreated | sub-G1 cells | 27.9 fold |
| COc1cc(CNC(=O)C[C@H](C)CCC=C(C)C)ccc1OCc1cn(-c2ccccc2[N+](=O)[O-])nn1 | TK-10 | SRB | 10 µM, 48 h | – | growth percent | 114% |
| CCCc1nn(C)c2c(=O)[nH]c(-c3cc(S(=O)(=O)N4CCN(C)CC4)ccc3OCC)nc12 | hiPSC cardiac tissues 3D | active force | 15 min per concentration, paced at 1 Hz serum-free | – | minimum effective concentration | 100 µM |
| COc1ccc(C2=Nn3c(NN=C4C(=O)N(Cc5ccccc5)c5ccc(Cl)cc54)nnc3SC2)cc1 | UACC-257 | cell growth or viability, SRB | 10 µM | – | inhibition | 13% |
| CC/C=C\C/C=C\C/C=C\C/C=C\C/C=C\C/C=C\CCC(=O)Nc1ccn(C2OC(CO)C(O)C2(F)F)c(=O)n1 (centres unmarked) | TK-10 | cell growth or viability, SRB | – | – | GI50 | 11.5 µM |
| COC(=O)CC[C@@H](NC(=O)[C@@H](Cc1ccc(OP(=O)(O)O)cc1)NC(=O)[C@@H](Cc1ccccc1)NC(=O)[C@@H](Cc1ccccc1)NC(=O)Cc1ccc2ccccc2c1)C(=O)OC | SAOS-2 | MTT | 10 µM, with: TNAP inhibitor DQB 2 µM | – | viability | 23% |
| COc1cc(CNC(=O)C[C@H](C)CCC=C(C)C)ccc1OCc1cn(-c2ccc(Br)cc2)nn1 | NCI-H322M | SRB | 10 µM, 48 h | – | growth percent | 99.6% |
| CC(=C(c1ccc(O)cc1)c1ccc(Cl)cc1)c1ccc(Cl)cc1 | CAKI-1 | cell growth or viability | – | – | GI50 | 1.01 µM |
| COc1cc(CNC(=O)C[C@H](C)CCC=C(C)C)ccc1OCc1cn(-c2ccccc2Cl)nn1 | KM12 | SRB | 10 µM, 48 h | – | growth percent | 63% |
| O=Cc1c(O)ccc2ccccc12 | hCMEC/D3 | qPCR, measured: KLF4 | 50 µM, 12 h | relative to: control | mRNA level | ~6.5 fold |
| COc1cc(CNC(=O)C[C@H](C)CCC=C(C)C)ccc1OCc1cn(-c2ccc(Cl)c(Cl)c2)nn1 | KM12 | SRB | 10 µM, 48 h | – | growth percent | 82.7% |
| COc1ccc(CN2C(=O)C(=O)c3cc(NC(C)=O)ccc32)cc1 | K562 | western blot | 1 to 10 µM, 24 h | – | Bcl-xL protein level | decreased |

Repeated from above:
| SMILES | cell line | test | setting | scale | endpoint | value |
| --- | --- | --- | --- | --- | --- | --- |
| CC[C@H](C)[C@H](NC(=O)[C@H](CCCCN)NC(=O)[C@@H](NC(=O)[C@H](CCC(N)=O)NC(=O)[C@@H](N)CCCNC(=N)N)[C@@H](C)CC)C(=O)N[C@@H](Cc1c[nH]c2ccccc12)C(=O)N[C@@H](Cc1ccccc1)C(=O)N[C@@H](CCC(N)=O)C(=O)N[C@@H](CC(N)=O)C(=O)N[C@@H](CCCNC(=N)N)C(=O)N[C@@H](CCCNC(=N)N)C(=O)N[C@@H](CCSC)C(=O)N[C@@H](CCCCN)C(=O)N[C@@H](Cc1c[nH]c2ccccc12)C(=O)N[C@@H](CCCCN)C(=O)N[C@@H](CCCCN)C(=O)N[C@@H](CO)C(=O)N[C@@H](Cc1c[nH]c2ccccc12)C(=O)N[C@H](C(=O)N[C@@H](Cc1c[nH]c2ccccc12)C(=O)N[C@@H](CCC(=O)O)C(=O)N[C@@H](CCCCN)C(=O)N[C@@H](CCCCN)C(=O)N[C@@H](CC(C)C)C(=O)N[C@@H](CCC(=O)O)C(=O)N[C@H](C(=O)N[C@@H](C)C(=O)N[C@H](C(=O)N[C@@H](CC(N)=O)C(=O)N[C@@H](CC(C)C)C(=O)N[C@@H](C)C(=O)N[C@@H](Cc1c[nH]c2ccccc12)C(=O)N[C@H](C(=O)N[C@@H](C)C(=O)NCC(=O)N[C@@H](CC(N)=O)C(=O)N[C@@H](CO)C(=O)N[C@@H](CC(N)=O)C(=O)N[C@@H](CCCCN)C(=O)N[C@@H](Cc1c[nH]c2ccccc12)C(=O)N[C@H](C(=O)N[C@@H](Cc1c[nH]c2ccccc12)C(=O)N[C@@H](CCCCN)C(=O)O)[C@@H](C)O)[C@@H](C)O)C(C)C)[C@@H](C)O)[C@@H](C)O | CLL patient PBMCs | CellTiter-Glo | 1.5 µM, 5 min | – | decrease in cellular ATP | 50% |
| COc1cc(CNC(=O)C[C@H](C)CCC=C(C)C)ccc1O | SK-OV-3 ovarian cancer cells | SRB | 10 µM, 48 h | – | growth percent | 97.8% |
